Results collected from several papers.
Numbered parts are unrelated; each lists some results of a single study. Values joined by “and” are separate records of one study, mostly repeats; a detail may differ.
Chain of UniProt P52564 (whole entry, looked up): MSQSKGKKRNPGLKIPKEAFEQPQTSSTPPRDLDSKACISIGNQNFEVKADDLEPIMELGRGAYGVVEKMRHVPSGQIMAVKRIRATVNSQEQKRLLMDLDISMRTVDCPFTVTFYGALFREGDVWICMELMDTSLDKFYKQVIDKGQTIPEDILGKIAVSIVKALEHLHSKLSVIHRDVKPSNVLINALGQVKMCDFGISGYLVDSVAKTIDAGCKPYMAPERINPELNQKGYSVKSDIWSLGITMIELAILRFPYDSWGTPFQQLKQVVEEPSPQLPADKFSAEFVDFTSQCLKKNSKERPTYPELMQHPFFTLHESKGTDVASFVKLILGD
Chain of UniProt P07948 (whole entry, looked up): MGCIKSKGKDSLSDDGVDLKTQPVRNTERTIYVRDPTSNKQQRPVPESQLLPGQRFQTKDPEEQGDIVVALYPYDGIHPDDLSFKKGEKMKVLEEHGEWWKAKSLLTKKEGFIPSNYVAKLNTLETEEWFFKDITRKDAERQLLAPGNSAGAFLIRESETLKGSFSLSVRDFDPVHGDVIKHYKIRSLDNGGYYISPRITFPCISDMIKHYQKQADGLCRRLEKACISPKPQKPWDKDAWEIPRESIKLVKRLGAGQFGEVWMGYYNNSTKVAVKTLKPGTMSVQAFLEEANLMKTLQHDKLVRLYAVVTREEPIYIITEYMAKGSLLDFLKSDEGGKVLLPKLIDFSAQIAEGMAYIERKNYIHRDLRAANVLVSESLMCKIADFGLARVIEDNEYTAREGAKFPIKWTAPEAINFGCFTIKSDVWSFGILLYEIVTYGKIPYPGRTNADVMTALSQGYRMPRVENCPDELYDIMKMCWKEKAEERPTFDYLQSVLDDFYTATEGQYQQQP
Chain of UniProt Q9Y243 (whole entry, looked up): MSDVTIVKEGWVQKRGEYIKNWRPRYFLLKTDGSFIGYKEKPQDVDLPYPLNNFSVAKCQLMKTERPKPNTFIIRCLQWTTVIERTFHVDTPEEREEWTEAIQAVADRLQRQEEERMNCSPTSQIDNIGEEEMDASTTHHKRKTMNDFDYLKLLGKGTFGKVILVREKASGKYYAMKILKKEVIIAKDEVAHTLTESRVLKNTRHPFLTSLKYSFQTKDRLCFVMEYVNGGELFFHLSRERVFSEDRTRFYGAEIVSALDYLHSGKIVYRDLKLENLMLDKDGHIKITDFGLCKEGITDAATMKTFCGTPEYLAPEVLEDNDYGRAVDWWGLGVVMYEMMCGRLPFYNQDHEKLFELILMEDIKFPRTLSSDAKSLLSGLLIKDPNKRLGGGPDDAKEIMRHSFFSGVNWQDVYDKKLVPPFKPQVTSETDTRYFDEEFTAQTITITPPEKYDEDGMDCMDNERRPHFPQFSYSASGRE
Chain of UniProt Q9HBH9 (whole entry, looked up): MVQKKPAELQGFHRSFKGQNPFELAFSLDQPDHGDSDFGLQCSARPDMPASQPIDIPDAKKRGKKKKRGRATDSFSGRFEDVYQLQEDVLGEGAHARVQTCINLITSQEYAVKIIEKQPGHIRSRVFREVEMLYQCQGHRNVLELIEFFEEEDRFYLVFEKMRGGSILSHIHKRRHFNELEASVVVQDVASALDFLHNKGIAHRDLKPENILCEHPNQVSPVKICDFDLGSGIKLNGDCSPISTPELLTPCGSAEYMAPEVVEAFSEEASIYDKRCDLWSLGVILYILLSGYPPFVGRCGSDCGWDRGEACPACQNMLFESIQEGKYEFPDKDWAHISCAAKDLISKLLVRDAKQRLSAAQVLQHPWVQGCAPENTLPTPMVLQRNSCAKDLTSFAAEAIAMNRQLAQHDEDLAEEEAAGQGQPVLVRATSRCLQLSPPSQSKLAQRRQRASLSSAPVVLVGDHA
Chain of UniProt P41743 (whole entry, looked up): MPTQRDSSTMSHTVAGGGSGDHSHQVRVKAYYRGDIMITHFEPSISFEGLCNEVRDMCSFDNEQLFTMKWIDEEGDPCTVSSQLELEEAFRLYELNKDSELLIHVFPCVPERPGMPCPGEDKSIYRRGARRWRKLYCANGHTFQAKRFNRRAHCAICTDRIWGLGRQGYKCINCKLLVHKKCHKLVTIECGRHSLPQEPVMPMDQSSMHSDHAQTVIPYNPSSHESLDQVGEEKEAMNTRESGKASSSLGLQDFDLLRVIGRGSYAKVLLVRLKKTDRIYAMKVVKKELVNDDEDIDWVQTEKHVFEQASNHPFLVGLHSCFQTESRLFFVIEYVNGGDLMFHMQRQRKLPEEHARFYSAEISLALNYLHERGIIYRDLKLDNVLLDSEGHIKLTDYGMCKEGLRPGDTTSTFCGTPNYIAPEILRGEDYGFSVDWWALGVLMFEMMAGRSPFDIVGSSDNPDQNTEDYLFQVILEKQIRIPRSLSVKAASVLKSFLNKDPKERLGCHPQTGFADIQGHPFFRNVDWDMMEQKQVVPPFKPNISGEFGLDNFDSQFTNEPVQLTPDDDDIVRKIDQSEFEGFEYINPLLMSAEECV
Chain of UniProt P68400 (whole entry, looked up): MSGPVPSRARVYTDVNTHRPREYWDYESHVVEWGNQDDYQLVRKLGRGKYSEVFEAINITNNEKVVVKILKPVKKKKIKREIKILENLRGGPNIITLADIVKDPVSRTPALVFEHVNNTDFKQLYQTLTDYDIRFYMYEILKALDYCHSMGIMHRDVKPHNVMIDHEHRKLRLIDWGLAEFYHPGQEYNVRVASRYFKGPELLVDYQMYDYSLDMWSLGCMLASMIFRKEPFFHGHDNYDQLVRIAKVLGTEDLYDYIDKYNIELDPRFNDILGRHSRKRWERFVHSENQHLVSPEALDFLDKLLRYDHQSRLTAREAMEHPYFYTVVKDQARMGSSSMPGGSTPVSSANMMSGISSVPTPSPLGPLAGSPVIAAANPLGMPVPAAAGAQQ
Chain of UniProt Q9NYY3 (whole entry, looked up): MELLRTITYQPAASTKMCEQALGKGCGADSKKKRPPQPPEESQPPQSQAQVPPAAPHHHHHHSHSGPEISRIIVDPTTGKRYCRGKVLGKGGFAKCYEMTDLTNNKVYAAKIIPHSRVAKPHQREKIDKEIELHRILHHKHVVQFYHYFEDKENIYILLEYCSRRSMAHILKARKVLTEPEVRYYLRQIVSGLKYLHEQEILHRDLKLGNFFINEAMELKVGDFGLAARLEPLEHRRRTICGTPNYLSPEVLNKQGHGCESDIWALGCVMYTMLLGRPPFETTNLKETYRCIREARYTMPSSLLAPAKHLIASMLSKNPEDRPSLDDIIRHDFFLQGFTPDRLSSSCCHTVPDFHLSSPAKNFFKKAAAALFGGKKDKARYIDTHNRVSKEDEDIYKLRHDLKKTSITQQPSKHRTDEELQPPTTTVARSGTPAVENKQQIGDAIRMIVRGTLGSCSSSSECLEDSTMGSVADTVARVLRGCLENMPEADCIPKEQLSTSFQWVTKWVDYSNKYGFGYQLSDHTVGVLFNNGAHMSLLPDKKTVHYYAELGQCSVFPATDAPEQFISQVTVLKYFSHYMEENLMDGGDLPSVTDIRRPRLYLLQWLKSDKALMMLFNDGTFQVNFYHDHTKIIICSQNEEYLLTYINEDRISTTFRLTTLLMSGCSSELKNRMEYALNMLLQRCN
Chain of UniProt P31645 (whole entry, looked up): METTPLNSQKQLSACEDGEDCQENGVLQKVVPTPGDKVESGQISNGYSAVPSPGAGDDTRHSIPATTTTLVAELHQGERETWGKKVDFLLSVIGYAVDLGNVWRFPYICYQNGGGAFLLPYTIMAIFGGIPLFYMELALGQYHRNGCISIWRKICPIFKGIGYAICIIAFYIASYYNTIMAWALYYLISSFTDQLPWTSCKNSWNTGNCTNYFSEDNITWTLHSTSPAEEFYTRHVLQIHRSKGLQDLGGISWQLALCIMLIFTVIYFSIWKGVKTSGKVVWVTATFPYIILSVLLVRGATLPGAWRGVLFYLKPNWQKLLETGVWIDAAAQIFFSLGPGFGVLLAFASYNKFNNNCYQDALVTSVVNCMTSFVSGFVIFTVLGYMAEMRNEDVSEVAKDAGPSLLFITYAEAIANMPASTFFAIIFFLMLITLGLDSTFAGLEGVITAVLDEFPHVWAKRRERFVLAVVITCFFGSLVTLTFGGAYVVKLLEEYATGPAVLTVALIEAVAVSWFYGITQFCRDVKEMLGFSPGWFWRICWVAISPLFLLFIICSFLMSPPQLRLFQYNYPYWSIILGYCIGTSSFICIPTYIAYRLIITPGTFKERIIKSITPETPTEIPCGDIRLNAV
Chain of UniProt P21918 (whole entry, looked up): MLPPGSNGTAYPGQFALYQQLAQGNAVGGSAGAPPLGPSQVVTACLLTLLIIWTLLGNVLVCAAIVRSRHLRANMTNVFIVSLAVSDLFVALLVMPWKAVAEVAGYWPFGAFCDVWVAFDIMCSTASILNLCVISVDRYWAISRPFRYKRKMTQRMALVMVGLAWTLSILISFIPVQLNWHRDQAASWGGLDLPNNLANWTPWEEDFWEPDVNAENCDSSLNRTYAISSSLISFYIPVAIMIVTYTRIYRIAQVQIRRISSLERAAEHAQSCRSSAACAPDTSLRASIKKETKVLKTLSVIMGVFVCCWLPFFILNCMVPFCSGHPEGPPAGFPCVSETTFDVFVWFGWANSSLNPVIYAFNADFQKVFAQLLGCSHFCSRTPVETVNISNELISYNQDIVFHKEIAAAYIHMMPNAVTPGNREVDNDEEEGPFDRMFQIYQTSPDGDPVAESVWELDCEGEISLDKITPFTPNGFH
Chain of UniProt P53778 (whole entry, looked up): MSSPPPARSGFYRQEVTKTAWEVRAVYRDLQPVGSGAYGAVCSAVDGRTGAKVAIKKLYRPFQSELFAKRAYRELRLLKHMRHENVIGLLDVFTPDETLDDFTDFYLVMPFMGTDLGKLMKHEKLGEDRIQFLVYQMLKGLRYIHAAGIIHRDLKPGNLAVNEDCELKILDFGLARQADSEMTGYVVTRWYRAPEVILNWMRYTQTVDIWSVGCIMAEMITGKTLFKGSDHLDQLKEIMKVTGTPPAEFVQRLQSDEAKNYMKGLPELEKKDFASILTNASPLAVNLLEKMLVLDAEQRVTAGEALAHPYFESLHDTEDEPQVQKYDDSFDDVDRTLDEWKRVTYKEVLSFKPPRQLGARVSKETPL

Block 1
Structure (SMILES): CNC(=O)c1cc(C(=O)N[C@H]2[C@@H]3COC[C@@H]32)cc2c1O[C@@H](CF)[C@@H]2c1ccccc1
Effect on: binding
Method: radioligand binding
Concentration: 10 µM
Measurement: inhibition
SLC6A2 (Homo sapiens, UniProt P23975): -37.3%
SLC6A4 (Homo sapiens, UniProt P31645): -14.2%
OPRM1 (Homo sapiens, UniProt P35372): 4.77%
DRD5 (Homo sapiens, UniProt P21918): -7.16%

Block 2
Cell line: mouse MPNST tumor cells
Method: high-content nuclear imaging
Measured: cell number
Concentration: 10 µM
Time: 12 h
Notes: mean of 2 replicates
Relative to: plate mean
Direction: higher = more cells
Measurement: nuclei count
CN1CCN(C(=O)OC2c3nccnc3C(=O)N2c2ccc(Cl)cn2)CC1 (centres unmarked): -0.113 z-score
NCC1(CC(=O)O)CCCCC1: 0.722 z-score and 1.5 z-score
NC(=O)OCCCc1ccccc1: 1.58 z-score
CN[C@@H]1[C@@H](O)[C@@H](O[C@@H]2[C@@H](O)[C@H](O[C@H]3O[C@H](CN)CC[C@H]3N)[C@@H](N)C[C@H]2N)OC[C@]1(C)O.CN[C@@H]1[C@@H](O)[C@@H](O[C@@H]2[C@@H](O)[C@H](O[C@H]3O[C@H]([C@@H](C)N)CC[C@H]3N)[C@@H](N)C[C@H]2N)OC[C@]1(C)O.CN[C@@H]1[C@@H](O)[C@@H](O[C@@H]2[C@@H](O)[C@H](O[C@H]3O[C@H]([C@@H](C)NC)CC[C@H]3N)[C@@H](N)C[C@H]2N)OC[C@]1(C)O: 1.04 z-score
CCNCC(O)c1cccc(O)c1 (centres unmarked): 1.63 z-score

Block 3
SMILES: N/C(=N\[N+](=O)[O-])N/N=C\c1ccc(-c2cccc([N+](=O)[O-])c2)o1
Effect on: enzyme activity
Action: inhibitor
Concentration: 0.5 µM
Relative to: control
Measurement: remaining activity
EPHA5 (Homo sapiens, UniProt P54756): 100%
PLK2 (Homo sapiens, UniProt Q9NYY3): 107%
PRKG1 (Homo sapiens, UniProt Q13976): 87.4%
WNK2 (Homo sapiens, UniProt Q9Y3S1): 106%
LYN (Homo sapiens, UniProt P07948): 96.3%
AKT3 (Homo sapiens, UniProt Q9Y243): 94.3%
MAPK12 (Homo sapiens, UniProt P53778): 93.4%
PRKCI (Homo sapiens, UniProt P41743): 92.3%
MKNK2 (Homo sapiens, UniProt Q9HBH9): 89.3%
MAP2K6 (Homo sapiens, UniProt P52564): 111%
CSNK2A1 (Homo sapiens, UniProt P68400): 91%

Block 4
Cell line: HEK-293T/ACE2
Concentration: concentration not given
Time: 16 (unit not given)
Relative to: vehicle
Measurement: viability
COc1c(C)c2c(c(O)c1C/C=C(\C)CCC(=O)OCCN1CCOCC1)C(=O)OC2: 94.9%
Cc1cc(C(C)(C)C)c(O)c(C)c1CC1=NCCN1: 98.9%
CC(S)C(=O)NCC(=O)O (centres unmarked): 102%
CC(N)C12CC3CC(CC(C3)C1)C2 (centres unmarked): 102%

Single results of other studies
Cell line: HaCaT
Concentration: 100 µM
Time: 60 h
C[C@]12CCC(=O)C(O)=C1CC[C@@H]1[C@@H]2CC[C@]2(C)C(=O)CC[C@@H]12
viability: 86.6%

CCC1(c2ccc(N)cc2)CCC(=O)NC1=O (centres unmarked)
viability: 127%

Some of these lines once more (block 3):
WNK2 (Homo sapiens, UniProt Q9Y3S1): 106%
LYN (Homo sapiens, UniProt P07948): 96.3%
PRKG1 (Homo sapiens, UniProt Q13976): 87.4%
